Experimental data collected from several papers.
Each numbered part is a random draw from the data of one study; scales do not carry over between parts.

Study 1 — method: RNA Bind-n-Seq; form: RNA; medium: in vitro; tested at: 365 nM; baseline: no-protein control; reading: higher = stronger binding; endpoint: RBNS enrichment (R)
Target: RNA binding protein fox-1 homolog 2, RRM domain, GST-SBP tag (RBFOX2, Homo sapiens, UniProt O43251-10, residues 100-194)
Setting: natural RNA segment, single round, ends assumed
Shared flanks, not repeated: GGGAGUUCUACAGUCCGACGAUC … UGGAAUUCUCGGGUGCCAA
Residues (chain): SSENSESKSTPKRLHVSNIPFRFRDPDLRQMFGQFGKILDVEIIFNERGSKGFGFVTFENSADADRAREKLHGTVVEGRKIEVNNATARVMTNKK
GUUCACAAAGAGCAUUAAGAAAGCUGCGGUGGUCUGAGCAACAUAGCCCAAAGGGCUGAGCCUCCUGGCCUGCCUGCCCGCCCACCCUGGGAGUCCCAGUGGUGAGGCUC: 0.766
GCACAGCCCUUGCCUGGAGCCCAGGAACCCCAUCCUUGCUUCAUCUCAGUUCUUCAUGGGCUUCACUCUUCCCACUCACGGAAGGGAGGUAGCUCAGGGACCUCCACUGU: 0.23
GAAUUGAACUCCUUGAGAGAUAGUUGGGUUUACUAAAUUAUUCUCUCUAAAAUGUCUCUGAGUGAAAAAGAGUUGCCUGGUACAAACAAAUCUGUGUUGGGGUUCCAGUG: 0.544
UAAGGUUCCUGUGGACUUUGUGUACCAAGGUGUCCAGUGCCACCAACACUGACCUGGGGCCUUUACAAAUGGUUGCUCUCCUCCAUCUUCCCAGGGCUGCGGUCCUGGUG: 0.19
GGGCCAGGUUCCCCAGACAGCAGGAAUUGCCCCUGUUCAGAGCAGCCGGAGUUUGCUGGACCACAAGGAAGAAGAGAAGAGACUUGCAGUGAACUGUUUUUGUGCCAAGA: 0.673
GCCCUUGCCUUUUCUGUAACUCACCAUUUAUUGUAUUUACAAAUCUAGUAAGGGUUUUGAUCACACCAAGUUCUUUGUAUUGAGAAGUCUAGGGCAGAGCUCUGGGGGAU: 0.406
UUUGACAGGGAAGGAAGUAACUGCAAAACACUAGGCUUUAGUAGGUACUUAUAUAAAAUCUAGUCCAGUUCUCUCAUUUAAAAAAAUGAAGACACUGAAAUACAGACUUA: 0.368
UUUACGAUUCUCACUGACUCCCCGUCUUCCUGGCAGACACAAAUAAACCCAGUGUCAGGUCUAGGAAAUUAAUGGCUAUUCUUCCCCAGAUACAUUCUGGCUUAUUUGAG: 0.237

Study 2 — method: protein binding microarray; form: double-stranded DNA, one strand shown; medium: in vitro; tested at: not given; baseline: not given; reading: higher = stronger binding; endpoint: E-score
Target: Histone acetyltransferase KAT6A, both winged helices, GST fusion (KAT6A, Homo sapiens, UniProt Q92794, residues 1-181)
Setting: 8-mer, flanks averaged, mean of 2 arrays, mostly near background
Construct (chain): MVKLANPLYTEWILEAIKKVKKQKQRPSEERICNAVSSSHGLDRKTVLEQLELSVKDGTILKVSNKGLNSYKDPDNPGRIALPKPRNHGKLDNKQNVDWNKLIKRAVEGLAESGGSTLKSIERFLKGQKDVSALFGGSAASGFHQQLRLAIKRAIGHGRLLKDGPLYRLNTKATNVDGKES
ACTACAGG: -0.0978
ACGTCTCA: -0.0994
AGGTTGAC: -0.14
CCGCTAGC: 0.181
TGAGCCAA: -0.173
AATACAGA: -0.0798
GTGAAGGA: -0.0153
CACCTACA: -0.209
ACATAAAA: -0.137
GTGACTGA: -0.0818
GCGGAACA: 0.224
CACCTCAA: -0.166
GTATTGAC: 0.0862
GGGAACTA: 0.0424
ATAGGGCG: -0.0159
AAATGTCA: 0.0188
CAGTACTC: -0.207

Study 3 — method: protein-binding microarray; form: double-stranded DNA, one strand shown; medium: in vitro; tested at: 2540 nM top; setting: 60-bp whole probe; together with: salmon DNA 0.4 mg/ml; baseline: random background probes; reading: higher = stronger binding; endpoint: fitted relative affinity; shared flanks, not repeated: GCCTAGCAC … GTCTTGATTCGCTTGACGCTGCTG
Target: Interferon regulatory factor 3, full length, phosphomimetic (IRF3, Homo sapiens, UniProt Q14653, residues 1-427, S386D/S396D/S398D/S402D/T404D/S405D)
Target sequence (chain): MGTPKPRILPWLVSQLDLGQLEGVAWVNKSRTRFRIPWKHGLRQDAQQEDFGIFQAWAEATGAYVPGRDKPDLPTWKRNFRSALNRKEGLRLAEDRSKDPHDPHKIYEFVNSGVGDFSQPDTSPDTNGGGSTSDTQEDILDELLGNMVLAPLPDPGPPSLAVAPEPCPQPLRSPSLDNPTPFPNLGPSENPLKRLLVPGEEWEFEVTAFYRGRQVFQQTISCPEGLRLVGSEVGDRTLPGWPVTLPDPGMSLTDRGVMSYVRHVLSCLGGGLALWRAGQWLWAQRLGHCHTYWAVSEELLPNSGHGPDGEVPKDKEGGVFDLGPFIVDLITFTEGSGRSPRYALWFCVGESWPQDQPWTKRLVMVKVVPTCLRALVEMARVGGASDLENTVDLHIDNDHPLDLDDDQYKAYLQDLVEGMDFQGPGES
GACGATCTCAGACTGGAGGCGTGCTAG: 0.229 z-score
TCATCTTCCCCTCTCTTACTGTGCTAG: 1.98 z-score
GACGATATCCTTTTCCTGACGTGCTAG: 4.64 z-score
GACGGTATCCTTATCTTGACGTGCTAG: 4.44 z-score
GTTACTTTCTACTTCTCTTTGTGCTAG: 3.67 z-score
ATGAGACTGTCACATCCCTGGTGCTAG: -0.453 z-score
TTAGGTCTCGGACTCGGTTAGTGCTAG: 0.181 z-score
TTAGGTTTCCTACTGCGTTAGTGCTAG: 4.97 z-score
GACTAACTGAGTCTCGAGACGTGCTAG: -0.222 z-score
TTAGATATCAGTAGCGATTAGTGCTAG: -0.0523 z-score
GACGATTTCAGTTTCGACACGTGCTAG: 4.5 z-score
TTAGATTTCGGGGTTCGATTAGTGCTA: 0.983 z-score
GACGGTTTCGGGTTTCGAGACGTGCTA: 5.83 z-score
TTAGAACTGAGGTTCGATTAGTGCTAG: -0.195 z-score
CTAATATTCTGCTTTGCAATGTGCTAG: 1.16 z-score
TCATCTTGCAGATGTCGCACTGTGCTA: 1.02 z-score
GACGGTCTCCTACTGTTGACGTGCTAG: 1.07 z-score

Study 4 — method: RNAcompete; form: RNA; medium: in vitro; tested at: 20 nM; setting: 7-mer, probes averaged, single round; baseline: mean of 7-mers; reading: higher = stronger binding; endpoint: 7-mer Z-score
Target: PABPC1L2, full length, GST fusion (mouse, UniProt A0ABA7IW68)
Target sequence (chain): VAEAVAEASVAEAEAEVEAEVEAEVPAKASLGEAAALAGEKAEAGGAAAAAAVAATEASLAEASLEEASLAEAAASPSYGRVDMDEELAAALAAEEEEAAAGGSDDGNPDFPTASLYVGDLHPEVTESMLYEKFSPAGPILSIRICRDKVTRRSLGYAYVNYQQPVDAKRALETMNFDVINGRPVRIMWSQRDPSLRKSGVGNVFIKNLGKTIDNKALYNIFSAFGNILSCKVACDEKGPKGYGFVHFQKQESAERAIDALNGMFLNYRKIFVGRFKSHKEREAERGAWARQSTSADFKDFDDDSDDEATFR
AACAAGC: 0.432
CCCACUA: -0.233
UUUAUGC: -0.142
UGAGUCU: -0.362
UCAUUUA: 0.166
CUUAACC: -0.402
CCGCACU: -0.26
CUCUAGA: -0.211
UCUGCCU: -0.32
AACACCU: 0.124
AUGCGUU: -0.329
CACUCGG: -0.0573
AAAGAAC: 2.06
UGGACUU: -0.184
CAUGUUC: -0.374
UCUGGCG: -0.079
UUACAAC: -0.101
UGUUCGC: -0.483
AUGGUGA: 0.0134
CCUCCGA: -0.322
CUAGUUC: -0.414
CUUAGGG: -0.079
UUGUGGA: 0.108
GGCCUGU: -0.146
CGCUGUA: -0.309

Some of these lines once more (study 2):
ACGTCTCA: -0.0994
AGGTTGAC: -0.14
CCGCTAGC: 0.181
